{"data": "Assay results gathered from unrelated publications", "note": "Each numbered part is a random draw from the data of one study; scales do not carry over between parts."}
{"data": "Block 1", "target": "Ras GTPase-activating protein-binding protein 1, C-terminal RGG region (G3BP1, Homo sapiens, UniProt Q13283)", "method": "RNA Bind-n-Seq", "form": "RNA", "matrix": "in vitro", "tested at": "1 µM", "notes": "whole 134-nt RNA, ends assumed", "added": "150 mM KCl", "reference": "input library", "direction": "higher = stronger binding", "UniProt Q13283, sequence (whole entry, looked up)": "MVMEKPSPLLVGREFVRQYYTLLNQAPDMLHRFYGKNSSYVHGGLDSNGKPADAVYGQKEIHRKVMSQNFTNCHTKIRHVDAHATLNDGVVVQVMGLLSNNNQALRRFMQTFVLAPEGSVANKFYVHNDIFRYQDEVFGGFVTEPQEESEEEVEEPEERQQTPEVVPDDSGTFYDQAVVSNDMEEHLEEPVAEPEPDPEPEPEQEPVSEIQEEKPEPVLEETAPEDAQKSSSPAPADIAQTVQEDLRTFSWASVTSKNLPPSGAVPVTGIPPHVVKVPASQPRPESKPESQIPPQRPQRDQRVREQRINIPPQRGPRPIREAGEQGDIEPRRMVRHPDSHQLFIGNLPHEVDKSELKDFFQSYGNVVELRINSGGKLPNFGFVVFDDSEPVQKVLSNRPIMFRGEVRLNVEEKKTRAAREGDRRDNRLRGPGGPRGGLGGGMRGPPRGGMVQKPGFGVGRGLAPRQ"}
{"Strand": "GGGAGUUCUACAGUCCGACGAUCCUGUGCUACACAUCGUAUGUACCGAAUCGGGGCCCCCCCGGGCCCCCCCGGGGCCCCCCCGGAAAGUAUUAUGUUACGCCGUUCGGAUCUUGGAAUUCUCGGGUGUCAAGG", "log2 enrichment": -2.09}
{"Strand": "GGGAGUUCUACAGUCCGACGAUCCUCAAGUCCUGUGCUACACAUCGUAUGUACCGAAUCGGCCGGGGCCGGCCGGGGAAAGUAUUAUGUUACGCCGUUCGGAUCUGCACUUCCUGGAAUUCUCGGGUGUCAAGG", "log2 enrichment": -1.04}
{"Strand": "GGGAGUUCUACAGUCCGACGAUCUGUGCUACACAUCGUAUGUACCGAAUCGGGUUUUUUUGGGUUUUUUUGGGGUUUUUUUGGGGAAAGUAUUAUGUUACGCCGUUCGGAUCUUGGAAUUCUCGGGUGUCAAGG", "log2 enrichment": -0.564}
{"Strand": "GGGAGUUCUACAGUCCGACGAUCCUGUGCUACACAUCGUAUGUACCGAAUCGGGGAAAAAAAGGAAAAAAAGGAAAAAAAGGGGAAAGUAUUAUGUUACGCCGUUCGGAUCUGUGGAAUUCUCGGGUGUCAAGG", "log2 enrichment": -1.57}
{"Strand": "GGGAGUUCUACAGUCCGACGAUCAGUCCUGUGCUACACAUCGUAUGUACCGAAUCGGGGAAAAGGAAAAGGGGAAAAGGGGAAAGUAUUAUGUUACGCCGUUCGGAUCUGCACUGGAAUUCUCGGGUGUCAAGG", "log2 enrichment": -0.449}
{"Strand": "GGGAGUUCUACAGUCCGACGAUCUCCUGUGCUACACAUCGUAUGUACCGAAUCGGGGAAAAAGGGGAGGGGUUUUUUUGGGGAAAGUAUUAUGUUACGCCGUUCGGAUCUGCAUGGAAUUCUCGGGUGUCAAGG", "log2 enrichment": 1.66}
{"Strand": "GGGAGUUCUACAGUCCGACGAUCCCUCAAGUCCUGUGCUACACAUCGUAUGUACCGAAUCGGCCGGGGCCGGCCGGAAAGUAUUAUGUUACGCCGUUCGGAUCUGCACUUCCAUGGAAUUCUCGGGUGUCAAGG", "log2 enrichment": -0.999}
{"Strand": "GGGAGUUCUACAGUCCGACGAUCCAAGUCCUGUGCUACACAUCGUAUGUACCGAAUCGGGAAAGGGAAAGGGAAAGGGAAAGUAUUAUGUUACGCCGUUCGGAUCUGCACUUCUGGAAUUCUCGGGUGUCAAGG", "log2 enrichment": 1.04}
{"data": "Block 2", "target": "RNA binding protein fox-1 homolog 2, RRM domain, GST-SBP tag (RBFOX2, Homo sapiens, UniProt O43251-10, residues 100-194)", "method": "RNA Bind-n-Seq", "form": "RNA", "matrix": "in vitro", "tested at": "365 nM", "notes": "natural RNA segment, single round, ends assumed", "reference": "no-protein control", "direction": "higher = stronger binding", "Construct (chain)": "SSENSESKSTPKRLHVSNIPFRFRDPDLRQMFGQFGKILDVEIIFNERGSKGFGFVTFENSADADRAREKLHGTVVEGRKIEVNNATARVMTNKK"}
{"Strand": "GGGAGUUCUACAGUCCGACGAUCAGUGGGGCCUGCACACGUGUUCCUGUCAGAGGCAAGGCUCACAUUCCUUGCCAGCACCUCUUUCUCUGCCCAAUUGAGGGGAACAAAAGGGUGUUCACAGAUGGAGCGAGUGGAAUUCUCGGGUGCCAA", "RBNS enrichment (R)": 0.776}
{"Strand": "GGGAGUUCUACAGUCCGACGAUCAGGCCAGAUCUGUGCUCAAGCCAUAGUUCUGCUUAGAAAGGGAUGCCCCACCCUUACCGGACACUGGGAAGAACUGUUGGCCCCUAGAAACCAAAGGCCAAACUGAGGCUUGGAAUUCUCGGGUGCCAA", "RBNS enrichment (R)": 0.406}
{"Strand": "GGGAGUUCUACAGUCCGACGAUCCUUCUCAGCAGUCUCAUUCAAGCUAAGGCUUGCAUACUCAAUCUGUGCCGUAGUCUACACAUUUUUAGGGGAUAUUUCACCAAAAUACUUGACAUGGUAACAUCACUAUUUGGAAUUCUCGGGUGCCAA", "RBNS enrichment (R)": 0.344}
{"Strand": "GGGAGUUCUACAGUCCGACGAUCUCAUCCCGAGCACCUCCACAUCCUCCACGUUCUGCUCAUCAUUCUCUGUCUCAUCCAUCAUCAUGUGUGUCCACGACUGUCUCCAUGGCCCUGCAAAAGGACUCUCAGGAUGGAAUUCUCGGGUGCCAA", "RBNS enrichment (R)": 0.723}
{"Strand": "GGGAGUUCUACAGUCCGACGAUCGUGUUACAAGAAAAGGCUGGAAGCAUUUCUACUAAGCGAGGCCCUUUACAGUGACCUCCAGGCAACUGAAGUCAAGAAUCAGGACUCGGGCUUGCUGCAGGAGGCCCACGUGGAAUUCUCGGGUGCCAA", "RBNS enrichment (R)": 0.466}
{"Strand": "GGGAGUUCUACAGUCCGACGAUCUUGUAACAGGCUUUUAUUUCCAGGUAAUAUGUCUUGGAAGACUUAAUUCUGAUUAGAGAUAUAGAUAUUACUGGAAACUAAUUGUUUUUUUUCUAUUGUACUCUGCUUUAUGGAAUUCUCGGGUGCCAA", "RBNS enrichment (R)": 0.485}
{"Strand": "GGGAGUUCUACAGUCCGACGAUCCCCGUCCAACUCCCUGGAGACCCUGGAAGUGAUGUGUGCACAUCCGGUGACCCUUGGCCACCAGACAAUACAGGGAGGUACCUGGGGAGCAGCUAGGAAAUCACAGGCCCUGGAAUUCUCGGGUGCCAA", "RBNS enrichment (R)": 0.362}
{"Strand": "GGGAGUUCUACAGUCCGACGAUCUCAAUGUUUUAUUCUGAAGUAAACGUUAGCUCUACAUAUAAAUCCUGGAACAGAAAUUGUUUAUAGAGACUACACUAAUUAUUUUAACUGUAUACAUCUGUUUAAUUUGAUGGAAUUCUCGGGUGCCAA", "RBNS enrichment (R)": 0.281}
{"Strand": "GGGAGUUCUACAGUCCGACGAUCGUAGCCUGAGCAGAGAAGGAGCCCCAAGGCAGAAGCUGGGGCCUGCUCCCGCACUCUGAGAAGUGGGUCAGGUGAUGAUCCCUGCACUUGAUUGAGAUCAGAAUCCAUCAUGGAAUUCUCGGGUGCCAA", "RBNS enrichment (R)": 0.515}
{"data": "Block 3", "target": "Interferon regulatory factor 7, full length, phosphomimetic (IRF7, Homo sapiens, UniProt Q92985, residues 1-503, S471D/S472D/S475D/S476D/S477D/S483D/S484D/S487D)", "method": "protein-binding microarray", "form": "double-stranded DNA, one strand shown", "matrix": "in vitro", "tested at": "2200 nM top", "notes": "60-bp whole probe", "added": "salmon DNA 0.4 mg/ml", "reference": "random background probes", "direction": "higher = stronger binding", "shared flanks, not repeated": "GCCTAGCAC … GTCTTGATTCGCTTGACGCTGCTG", "Construct (chain)": "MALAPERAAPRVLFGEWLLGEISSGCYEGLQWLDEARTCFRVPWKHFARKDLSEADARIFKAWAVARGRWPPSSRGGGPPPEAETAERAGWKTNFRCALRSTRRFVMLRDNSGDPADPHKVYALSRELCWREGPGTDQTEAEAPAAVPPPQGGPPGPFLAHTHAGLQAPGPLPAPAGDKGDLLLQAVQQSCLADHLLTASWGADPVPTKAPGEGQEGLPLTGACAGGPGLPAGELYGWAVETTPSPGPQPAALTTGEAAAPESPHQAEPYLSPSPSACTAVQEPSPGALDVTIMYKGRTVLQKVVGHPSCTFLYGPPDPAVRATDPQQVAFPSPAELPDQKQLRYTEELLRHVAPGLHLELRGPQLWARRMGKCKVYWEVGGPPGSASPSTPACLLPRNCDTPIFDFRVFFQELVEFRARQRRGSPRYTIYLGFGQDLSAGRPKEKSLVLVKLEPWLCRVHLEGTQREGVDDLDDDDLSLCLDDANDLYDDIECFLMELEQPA"}
{"Strand": "TTAGATATCAGAATCGATTAGTGCTAG", "fitted relative affinity [z-score]": -0.12}
{"Strand": "GCCGGTTTCGACTTTCGGGACGTGCTA", "fitted relative affinity [z-score]": 10.1}
{"Strand": "TTAGGTCTCCTTATGCTTTAGTGCTAG", "fitted relative affinity [z-score]": 0.653}
{"Strand": "TTAGGACTGGACTTTCGGTAAGTGCTA", "fitted relative affinity [z-score]": 0.942}
{"Strand": "GTCGAACTGGGGTTTCGAGACGTGCTA", "fitted relative affinity [z-score]": 1.71}
{"Strand": "GAAGGTATCGGTCTCGGGACGTGCTAG", "fitted relative affinity [z-score]": 0.307}
{"Strand": "GTCGATATCGGGTATCGAGACGTGCTA", "fitted relative affinity [z-score]": 0.467}
{"Strand": "ATGACTCTGCCTCTAACTGCGTGCTAG", "fitted relative affinity [z-score]": 0.842}
{"Strand": "CACGGTCTCGGTATCGGGACGTGCTAG", "fitted relative affinity [z-score]": 0.171}
{"data": "Single results of other studies"}
{"Molecule": "PhoQ, residues 284 288 289 292 302 303 SSYNSA", "target": "PhoP, residues 12 14 15 18 19 AQALL (Escherichia coli, UniProt P23836)", "assay": "Sort-seq, refers to: YFP reporter", "test system": "E. coli", "setting": "PhoQ-PhoP variant library, added: 10 µM Mg2+", "scale": "reference: high Mg2+ state, higher = stronger signaling", "quantity": "fold induction", "value": 1.67}
{"note": "Excerpt of the above (block 3):"}
{"Strand": "GCCGGTTTCGACTTTCGGGACGTGCTA", "fitted relative affinity [z-score]": 10.1}
{"Strand": "TTAGGACTGGACTTTCGGTAAGTGCTA", "fitted relative affinity [z-score]": 0.942}
